Experimental data gathered from unrelated publications.
Each numbered part is a random draw from the data of one study; scales do not carry over between parts. Substitutions count along the parent as printed.

Series 1 — technique: DNA-protein interaction ELISA; form: double-stranded DNA, one strand shown; matrix: in vitro, bacterial lysate; tested at: not given; notes: whole dsDNA probe, crude lysate protein; relative to: highest signal in screen; reading: higher = stronger binding
Target: Probable WRKY transcription factor 33, N-terminal DNA-binding domain (WRKY33, Arabidopsis thaliana, UniProt Q8S8P5, residues 169-264)
Construct (chain): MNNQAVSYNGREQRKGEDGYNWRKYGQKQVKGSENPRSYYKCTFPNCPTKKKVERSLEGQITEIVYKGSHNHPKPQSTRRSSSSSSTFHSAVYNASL
Strand | relative absorbance
AAAAAAACGATACGGTATCTAGAAAA | 22.4 % of maximum
AAAAAATACGTCTACGTGGTTGTCGTAAAA | 20.1 % of maximum
AAAAAATACATTTGACTTTGGGTTTCAAAA | 73.8 % of maximum
AAAAAAACTCTAGGTCAATATTATTCAAAA | 25.6 % of maximum
AAAAAATGGTCGTCGTACTCGTGGTCAAAA | 59.2 % of maximum
AAAAAAGCTCATGGCCCTGAGGATCTAAAA | 22.2 % of maximum
AAAAAAGTGTTAGATTGTAGTTGATAAAA | 20.7 % of maximum
AAAAAATAAACGTGTTCATACTTAGTAAAA | 15.9 % of maximum
AAAAAAAACTCCCATACTACAACCGAAAAA | 21.3 % of maximum
AAAAAATGCCATTGTACCTGTGTTCGAAAA | 25.2 % of maximum
AAAAAACACGCCATTGACACTGGTAAAAAA | 21.3 % of maximum
AAAAAAGCATATCTTCAGAACTTGCCAAAA | 21.6 % of maximum
AAAAAATCTTCACCTCACTTCGGTTTAAAA | 21.1 % of maximum

Series 2 — target: CCNA1, cyclin fold, Cln2 fusion (human); technique: yeast growth competition, sequencing; matrix: yeast; notes: weak parent motif; relative to: not given; reading: higher = stronger binding
Starting sequence: EXO1 docking peptide (human); KPECGRVQRAIFQ; partner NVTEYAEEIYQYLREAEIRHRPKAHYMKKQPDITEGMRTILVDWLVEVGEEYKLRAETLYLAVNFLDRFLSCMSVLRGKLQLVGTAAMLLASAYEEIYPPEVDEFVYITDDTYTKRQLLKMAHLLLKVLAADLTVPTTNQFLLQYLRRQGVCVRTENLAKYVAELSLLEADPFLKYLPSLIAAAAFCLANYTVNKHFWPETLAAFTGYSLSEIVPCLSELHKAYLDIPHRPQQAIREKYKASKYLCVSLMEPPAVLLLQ
Variant | normalised enrichment score
KPECGRVQAAIFQ [R9A] | -0.0655
KPECGRVQRAIAQ [F12A] | 0.105
KPEAGRVQRAIFQ [C4A] | -0.14
KPECGRVARAIFQ [Q8A] | -0.00593
KPACGRVQRAIFQ [E3A] | -0.0845
KPECARVQRAIFQ [G5A] | -0.19

Series 3 — technique: universal PBM; form: double-stranded DNA, one strand shown; matrix: in vitro; tested at: 600 nM; reading: higher = stronger binding
Target: Sal-like protein 4, full length isoform A (SALL4, Homo sapiens, UniProt Q9UJQ4, residues 1-1053)
UniProt Q9UJQ4, sequence (whole entry, looked up): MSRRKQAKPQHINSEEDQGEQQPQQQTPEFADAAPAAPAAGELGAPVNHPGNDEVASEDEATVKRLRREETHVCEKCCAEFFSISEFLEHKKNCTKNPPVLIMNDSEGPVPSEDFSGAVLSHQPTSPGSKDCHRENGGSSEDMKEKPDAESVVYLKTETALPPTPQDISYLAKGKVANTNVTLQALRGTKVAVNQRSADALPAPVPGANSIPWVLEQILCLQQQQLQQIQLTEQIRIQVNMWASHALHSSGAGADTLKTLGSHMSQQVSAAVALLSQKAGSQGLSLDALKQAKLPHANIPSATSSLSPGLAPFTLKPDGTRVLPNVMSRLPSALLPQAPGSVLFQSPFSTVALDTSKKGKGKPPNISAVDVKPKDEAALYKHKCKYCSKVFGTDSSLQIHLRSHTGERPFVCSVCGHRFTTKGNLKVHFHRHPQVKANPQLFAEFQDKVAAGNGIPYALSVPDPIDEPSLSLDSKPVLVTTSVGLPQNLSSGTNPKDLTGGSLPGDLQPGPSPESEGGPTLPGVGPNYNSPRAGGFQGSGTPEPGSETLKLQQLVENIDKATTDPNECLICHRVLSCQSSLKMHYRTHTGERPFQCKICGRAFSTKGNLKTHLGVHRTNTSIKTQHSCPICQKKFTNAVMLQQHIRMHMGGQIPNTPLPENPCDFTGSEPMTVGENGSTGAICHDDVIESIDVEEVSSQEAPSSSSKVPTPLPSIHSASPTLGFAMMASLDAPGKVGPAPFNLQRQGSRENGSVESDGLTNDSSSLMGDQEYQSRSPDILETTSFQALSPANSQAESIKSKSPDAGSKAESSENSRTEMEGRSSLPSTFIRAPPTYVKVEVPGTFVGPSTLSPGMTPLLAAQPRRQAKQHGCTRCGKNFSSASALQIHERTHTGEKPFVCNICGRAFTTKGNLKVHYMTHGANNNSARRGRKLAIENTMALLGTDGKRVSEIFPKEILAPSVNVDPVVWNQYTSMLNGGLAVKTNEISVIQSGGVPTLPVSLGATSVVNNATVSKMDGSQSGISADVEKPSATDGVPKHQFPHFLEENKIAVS
Notes: 8-mer, flanks averaged, mean of replicates
Strand | E-score
CGGGACAG | -0.165
CGTTGAGC | -0.203
AGTCTGAA | -0.0265
CTGAGTTC | -0.106
ATTTTCAC | 0.236
AAACATCC | 0.0649
AACCTCCC | -0.112
CAGATTAG | -0.0356
CGATCAGA | -0.043
AGTAGCGC | -0.151
AACGGACT | 0.0643
GGAGTTAC | -0.142
AGAATCGC | 0.0382
CGCGCCCA | -0.338
AGGCCTAG | -0.146
ACACTCAG | -0.126
ACTCCTAT | 0.141
CCCTTTAC | -0.127
GACCGTGA | -0.129
CTACAGAA | 0.189
ACCCGTCC | -0.222
CCTAGCCG | -0.159
AGCATTGA | 0.069
CTCATTAA | 0.207
GCCGGGAC | -0.288

Series 4 — technique: RNA Bind-n-Seq; form: RNA; matrix: in vitro; tested at: 365 nM; relative to: no-protein control; reading: higher = stronger binding
Target: RNA binding protein fox-1 homolog 2, RRM domain, GST-SBP tag (RBFOX2, Homo sapiens, UniProt O43251-10, residues 100-194)
Notes: natural RNA segment, single round, ends assumed
All sequences stand within: GGGAGUUCUACAGUCCGACGAUC … UGGAAUUCUCGGGUGCCAA
Residues (chain): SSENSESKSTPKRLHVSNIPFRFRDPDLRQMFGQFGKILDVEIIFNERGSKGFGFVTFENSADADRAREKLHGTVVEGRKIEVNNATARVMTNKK
Strand | RBNS enrichment (R)
UGCCCCACCCAAGCCCAAACUUGGUUUCUGUGAGAAUAGUGGAGGAAGGUGAGAUGGCCAGUUUGAAGCCUGUGCCUCCCAGCUUAAAUCCUAGCAGGAGAGAGGCUCUG | 0.276
AACAAGCCACCAACCACUGACUGCAAAACUGCCUGAUGCAGUUGGGUUCCUCCUGGUUUUCUUUUGUUACAACCACCCUUGCCUGUUUACAUUAAUUGCAAGGAGCAUAA | 1.27
CAGGCCCACUCAGGAUGCCCAUGCCCAGGGCAGCAGGCUUCUGGGGUUCAGAAUUGUAGCCUCAGCCUGUUUGACAAAGGUCUUGGGAACUCUGUGACUGCUUUGCCCAC | 1.37
GAGGCAUUCAUUGUGAGGUCUACUGGAUGAGGCCCAUAGUUGAGACUUGUAGACAUUUAUUUAUACUGUGUCAUGUUUUAUAAUUUAUACAUAAAAUGUCUGGUUGACUG | 1.33
CCCGGGGCCCCAGGCUGUGUUAGGGUUCUCUGGGCCUCUUCUUUGUACCAGCAGCCCUGCAUACAGGGCCCUGUGAGCCCCCCUGCAGUCCUGUGAGGCCCCUGAAGCUC | 0.382
UUCUCUUCUCAUUCCUGUUUUCAUUGAUUUCCCACAUGUAGUCCUUUUGCUCAGGAAGUCUUUGGGGAAAUUAAGGAUCUUUGAAGCUCUGAAAUAGGUGAUCAGGUUAG | 0.403
CUUGUGUUGUCCUUUGUCUUUUCUGUCUCAGAAUUUUGUACAUCUGGCUUAUUUUAAUGUGAUGAUGUAAUUGAUGGUUUUUUAUUAUUGUGGUAGGCCUUUUAACAUUU | 0.721
UGUUAAGAGAAGCACUAAGAAUGCCAGUGACCUGUGUAAAAGUUACAAGUAAUAGAACUAUGACUGUAAGCCUCAGUACUGUACAAGGGAAGCUUUUCCUCUCUCUAAUU | 0.399

For quick reference, copied from above (series 4):
Strand | RBNS enrichment (R)
UGCCCCACCCAAGCCCAAACUUGGUUUCUGUGAGAAUAGUGGAGGAAGGUGAGAUGGCCAGUUUGAAGCCUGUGCCUCCCAGCUUAAAUCCUAGCAGGAGAGAGGCUCUG | 0.276
AACAAGCCACCAACCACUGACUGCAAAACUGCCUGAUGCAGUUGGGUUCCUCCUGGUUUUCUUUUGUUACAACCACCCUUGCCUGUUUACAUUAAUUGCAAGGAGCAUAA | 1.27
CAGGCCCACUCAGGAUGCCCAUGCCCAGGGCAGCAGGCUUCUGGGGUUCAGAAUUGUAGCCUCAGCCUGUUUGACAAAGGUCUUGGGAACUCUGUGACUGCUUUGCCCAC | 1.37
GAGGCAUUCAUUGUGAGGUCUACUGGAUGAGGCCCAUAGUUGAGACUUGUAGACAUUUAUUUAUACUGUGUCAUGUUUUAUAAUUUAUACAUAAAAUGUCUGGUUGACUG | 1.33
CCCGGGGCCCCAGGCUGUGUUAGGGUUCUCUGGGCCUCUUCUUUGUACCAGCAGCCCUGCAUACAGGGCCCUGUGAGCCCCCCUGCAGUCCUGUGAGGCCCCUGAAGCUC | 0.382
UUCUCUUCUCAUUCCUGUUUUCAUUGAUUUCCCACAUGUAGUCCUUUUGCUCAGGAAGUCUUUGGGGAAAUUAAGGAUCUUUGAAGCUCUGAAAUAGGUGAUCAGGUUAG | 0.403
CUUGUGUUGUCCUUUGUCUUUUCUGUCUCAGAAUUUUGUACAUCUGGCUUAUUUUAAUGUGAUGAUGUAAUUGAUGGUUUUUUAUUAUUGUGGUAGGCCUUUUAACAUUU | 0.721
UGUUAAGAGAAGCACUAAGAAUGCCAGUGACCUGUGUAAAAGUUACAAGUAAUAGAACUAUGACUGUAAGCCUCAGUACUGUACAAGGGAAGCUUUUCCUCUCUCUAAUU | 0.399
